Experimental data gathered from unrelated publications.
Every numbered part comes from another study and shows a few of its results, in no order. Positions count from the first letter of the parent shown.
Chain of UniProt Q13404 (whole entry, looked up): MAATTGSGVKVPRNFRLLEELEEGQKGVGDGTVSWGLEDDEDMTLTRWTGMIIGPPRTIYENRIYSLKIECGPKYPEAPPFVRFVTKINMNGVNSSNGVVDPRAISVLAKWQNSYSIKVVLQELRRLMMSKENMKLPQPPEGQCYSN
Chain of UniProt P49427 (whole entry, looked up): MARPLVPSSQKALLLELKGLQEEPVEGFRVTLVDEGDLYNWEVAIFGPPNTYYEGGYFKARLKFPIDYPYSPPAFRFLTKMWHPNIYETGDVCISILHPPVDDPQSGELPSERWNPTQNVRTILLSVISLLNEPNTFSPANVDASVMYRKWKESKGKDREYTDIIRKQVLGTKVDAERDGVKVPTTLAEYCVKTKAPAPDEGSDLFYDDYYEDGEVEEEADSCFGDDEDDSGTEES
Chain of UniProt O14933 (whole entry, looked up): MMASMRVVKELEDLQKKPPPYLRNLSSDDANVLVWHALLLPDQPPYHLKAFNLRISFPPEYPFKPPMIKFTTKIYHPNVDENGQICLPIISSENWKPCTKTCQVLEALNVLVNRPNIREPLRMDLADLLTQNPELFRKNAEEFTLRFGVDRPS
Chain of UniProt Q5VVX9 (whole entry, looked up): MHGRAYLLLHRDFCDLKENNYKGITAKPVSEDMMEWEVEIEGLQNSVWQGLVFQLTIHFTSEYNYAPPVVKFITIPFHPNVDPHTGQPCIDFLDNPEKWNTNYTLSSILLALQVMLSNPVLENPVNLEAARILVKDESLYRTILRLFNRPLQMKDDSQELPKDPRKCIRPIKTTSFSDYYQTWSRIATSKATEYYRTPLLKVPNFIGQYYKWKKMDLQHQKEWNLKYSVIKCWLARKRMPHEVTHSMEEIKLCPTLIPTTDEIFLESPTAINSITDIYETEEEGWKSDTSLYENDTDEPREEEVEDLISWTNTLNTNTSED
Chain of UniProt P51965 (whole entry, looked up): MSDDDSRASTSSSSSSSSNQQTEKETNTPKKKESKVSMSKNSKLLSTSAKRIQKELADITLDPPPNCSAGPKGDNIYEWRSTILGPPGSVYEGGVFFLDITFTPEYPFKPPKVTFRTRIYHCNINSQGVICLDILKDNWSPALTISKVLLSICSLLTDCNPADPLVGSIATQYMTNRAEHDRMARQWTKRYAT
Chain of UniProt Q96LR5 (whole entry, looked up): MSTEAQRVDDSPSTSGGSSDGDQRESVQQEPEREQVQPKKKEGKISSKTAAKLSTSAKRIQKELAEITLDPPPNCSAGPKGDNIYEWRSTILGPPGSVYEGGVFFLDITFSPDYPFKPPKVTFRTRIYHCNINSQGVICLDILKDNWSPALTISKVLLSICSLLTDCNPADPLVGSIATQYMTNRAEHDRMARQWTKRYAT
Chain of UniProt Q8WVN8 (whole entry, looked up): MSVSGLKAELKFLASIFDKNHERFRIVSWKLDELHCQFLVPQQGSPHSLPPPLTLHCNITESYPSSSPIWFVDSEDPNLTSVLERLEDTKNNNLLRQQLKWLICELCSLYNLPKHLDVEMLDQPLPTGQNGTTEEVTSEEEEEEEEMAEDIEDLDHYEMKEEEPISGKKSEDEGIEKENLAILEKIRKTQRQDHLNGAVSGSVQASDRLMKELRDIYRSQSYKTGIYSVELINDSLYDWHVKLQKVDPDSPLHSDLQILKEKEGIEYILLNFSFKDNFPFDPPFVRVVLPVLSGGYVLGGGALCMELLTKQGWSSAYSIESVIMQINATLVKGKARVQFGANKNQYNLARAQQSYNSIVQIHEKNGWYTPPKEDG
Chain of UniProt P61088 (whole entry, looked up): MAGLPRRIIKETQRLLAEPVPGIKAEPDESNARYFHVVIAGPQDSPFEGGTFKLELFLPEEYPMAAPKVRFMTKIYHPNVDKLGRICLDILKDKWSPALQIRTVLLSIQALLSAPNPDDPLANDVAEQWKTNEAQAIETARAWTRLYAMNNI
Chain of UniProt P62256 (whole entry, looked up): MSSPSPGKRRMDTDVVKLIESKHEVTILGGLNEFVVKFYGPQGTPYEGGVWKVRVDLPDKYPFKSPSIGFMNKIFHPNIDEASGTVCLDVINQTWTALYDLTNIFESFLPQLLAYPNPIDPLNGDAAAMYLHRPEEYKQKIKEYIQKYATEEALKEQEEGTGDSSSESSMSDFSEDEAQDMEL
Chain of UniProt Q15819 (whole entry, looked up): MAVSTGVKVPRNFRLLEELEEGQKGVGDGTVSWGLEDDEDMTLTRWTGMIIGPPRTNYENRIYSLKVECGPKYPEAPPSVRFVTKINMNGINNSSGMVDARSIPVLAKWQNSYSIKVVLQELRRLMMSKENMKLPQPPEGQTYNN
Chain of UniProt P60604 (whole entry, looked up): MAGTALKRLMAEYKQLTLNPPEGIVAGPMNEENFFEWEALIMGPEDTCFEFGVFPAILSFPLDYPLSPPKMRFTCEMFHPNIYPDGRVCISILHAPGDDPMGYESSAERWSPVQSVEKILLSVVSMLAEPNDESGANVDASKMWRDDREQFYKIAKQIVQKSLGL

Sample 1
Target: CCND1, cyclin fold, Cln2 fusion (human)
Method: yeast growth competition, sequencing
Matrix: yeast
Notes: strong parent motif
Baseline: not given
Direction: higher = stronger binding
Starting sequence: E2F1 docking peptide (human); PPVKRRLDFETDH; partner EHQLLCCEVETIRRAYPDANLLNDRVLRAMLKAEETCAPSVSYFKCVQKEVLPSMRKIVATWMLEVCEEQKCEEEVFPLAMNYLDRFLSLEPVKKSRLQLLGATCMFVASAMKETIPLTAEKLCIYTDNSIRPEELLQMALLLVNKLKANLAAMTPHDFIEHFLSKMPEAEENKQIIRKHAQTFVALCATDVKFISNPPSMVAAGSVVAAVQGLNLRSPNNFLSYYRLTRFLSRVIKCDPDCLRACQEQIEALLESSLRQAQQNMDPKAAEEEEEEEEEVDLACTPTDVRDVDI
| Substitution | normalised enrichment score |
| --- | --- |
| R5V | 1.09 |
| R5H | 0.0201 |
| D12A | 2.79 |
| L7A | 0.426 |
| R6G | 0.383 |
| E10L | 1.06 |
| R6H | 1.07 |
| F9N | 0.216 |
| R6N | 0.528 |
| T11M | 2.95 |
| V3Y | 0.258 |
| V3H | 0.401 |
| T11Y | 2.95 |
| E10D | 3.61 |
| R5M | 0.591 |
| R5I | 1.24 |
| V3M | 0.319 |
| R5C | 0.968 |
| D8V | 2.6 |
| K4Q | 3.29 |
| T11R | 1.84 |
| D8Q | 1.86 |
| D8G | 0.5 |
| V3T | 3 |
| R6V | 2.08 |

Sample 2
Target: ABI1, truncated, D143A, DHFR fusion (Arabidopsis thaliana)
Method: DHFR PCA, deep sequencing
Matrix: yeast
Notes: methotrexate growth selection, single substitutions
Together with: (+)-ABA 0.39 µM
Baseline: wild-type fitted maximum
Direction: higher = stronger binding
Starting sequence: PYL1, truncated, DHFR fusion (Arabidopsis thaliana); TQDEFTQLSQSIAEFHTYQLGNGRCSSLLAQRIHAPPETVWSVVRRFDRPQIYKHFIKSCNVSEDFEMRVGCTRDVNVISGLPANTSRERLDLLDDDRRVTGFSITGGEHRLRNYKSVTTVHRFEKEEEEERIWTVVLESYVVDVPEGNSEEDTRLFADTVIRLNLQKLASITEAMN
| Substitution | relative binding score [%] |
| --- | --- |
| E125F | 40.9 |
| A84S | 33.5 |
| I162Q | 18.5 |
| T73L | 31.1 |
| I105S | -5.81 |
| I12P | 1.34 |
| T101P | -1.8 |
| G71D | -6.74 |
| G71Y | -5.29 |
| G23I | -5.57 |
| F103V | -9.03 |
| E147W | -0.538 |
| N177T | 57.1 |
| L164G | 15.7 |
| T17L | -4.2 |
| E130K | 53.1 |
| Q31R | 19.6 |

Sample 3
Target: RING finger protein unkempt homolog, zinc fingers 1-6, GST-SBP tag (UNK, Homo sapiens, UniProt Q9C0B0, residues 30-357)
Method: RNA Bind-n-Seq
Form: RNA
Matrix: in vitro
Concentration: not given
Notes: RNA with constant flanks, human and mouse sites, ends assumed
Baseline: input RNA pool
Direction: higher = stronger binding
All sequences stand within: GGGAGUUCUACAGUCCGACGAUC … CAACAGAGGAUUGAGCAUCA
Target sequence (chain): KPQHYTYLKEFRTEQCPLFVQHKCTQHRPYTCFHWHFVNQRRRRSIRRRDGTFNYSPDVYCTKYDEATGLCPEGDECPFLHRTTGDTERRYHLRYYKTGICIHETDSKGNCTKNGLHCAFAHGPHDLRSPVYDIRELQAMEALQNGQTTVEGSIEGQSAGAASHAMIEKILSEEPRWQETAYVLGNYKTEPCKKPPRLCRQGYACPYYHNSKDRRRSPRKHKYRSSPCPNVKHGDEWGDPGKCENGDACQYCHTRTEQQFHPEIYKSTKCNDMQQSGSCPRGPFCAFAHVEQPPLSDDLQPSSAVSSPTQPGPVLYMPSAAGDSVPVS
| Strand | bound/input enrichment |
| --- | --- |
| CUAGUACUCCCAACCCCACCUUACUUGUUUGGGAUUCUUAUCCAGAAAUGGGAAACUCCUUGGGCUAAAGUAUUUCCUAUCCGUCUGAUGUUGAGACUUGGAGCUGAAUAUCGACUUUAU | 0.352 ratio |
| AAUGUCCUUAAAGCAAUUGAGCAGGCUGAUCUACUGCAGGAGGAAGCUGAAACCCCACGUAGUGUUCUUGAAGAAAUUGGACUGACAUAACUCUCCUCCCUUGUUGAUGACUUCUUGUGG | 0.961 ratio |
| UGGAGAGUGGGACCAAGACCCUUGGCCCCUGUGGAGGGGAACCACCUCCCCCCUCCUUCCCAGAGCUUCUGGAUGUUGUGGGAGGGAGGUGGGGGUGCCUGGCAGGCUCACCCCCAGGGG | 0.102 ratio |
| GGCACGAGGCUUCCUGCCUCUUCCCUCUUCCUCCUUGUAAGAGCUUCAACCCAAGUCCUCCAAUUCACAUUAAGGAAUCCAUACUAAAGGGGGACUUGAGGGUGUGUACCCUACAGGCCA | 0.098 ratio |
| GCUUCUAAAAUGUGAUUAUCGACCAUGGUAUGCAUGAUCGUUGUAAUUGUUGACAUUCCUUUUAGAAGUUGUGAAAUGUUACAACUUGUGCUUCUGUAGACACAAUCUUCUGUCUCCAUA | 0.51 ratio |
| CCAGGUGUGCCCGGCUAAUGGUAUUACUGAGAGAGAGAGGCGUAAGAACUCUUAUUUAUUAUAGAAAGGAUUUGGGGAAUGUGGGUCUAAGGGCUGGGGGUGUGGGUUAGUGGUGUGCAU | 12 ratio |
| AUUUUGGAAUCAGUUCUUAUAAACAGCUCGAUUCAGUUUUAGCUAAAUUUAUAGUUUAGGUAGUAUGUUACAUUUGAAUUUUUGUCUUAAGAAAAGUUGACUGUUCAGAUAUUUUUCUAC | 4.49 ratio |
| AUGGAGGUGAAGGUGAAGAUCCCUGAAGAAUUAAAACCGUGGCUGGUGGAGGACUGGGACUUGGUUACGAGGCAGAAGCAGUUGUUCCAGCUCCCUGCUAAAAAGAAUGUCGAUGCCAUU | 0.26 ratio |
| GAAUACUUAUGAGAAUCAGCAUAAAGAAAUGAAUGAAAUCAGUGGUAAACAGGUGUUAAUUGUGUCAGUUUUGAAUCUUUCUAACAAACUGGAGAUCUCCCUUUUAUGUAUGUGUAGCUU | 0.335 ratio |
| AAAUAUAUGAAAAGUAGAACUAUUCUGCAGCAGCACAUGAAGAAAUGUGGUUGGUUCCAUCCUCCUGCCAAUGAGAUUUACAGAAAGAAUAAUAUUUCUGUCUUUGAGGUUGAUGGGAAU | 0.299 ratio |
| GUCCAGUCAGAACGGCCAGCUGAGGGGCCCUGUGAAGGCCAGUGCUGGCCCUGGAGGAGGGGGCACACAGCCACAGCCACAGCUGAACCAGUUGAAGAACACCAGCACAAUCAAUAAUGG | 0.105 ratio |

Sample 4
Substance: STUB1 RING domain (UniProt Q9UNE7)
Chain of UniProt Q9UNE7 (whole entry, looked up): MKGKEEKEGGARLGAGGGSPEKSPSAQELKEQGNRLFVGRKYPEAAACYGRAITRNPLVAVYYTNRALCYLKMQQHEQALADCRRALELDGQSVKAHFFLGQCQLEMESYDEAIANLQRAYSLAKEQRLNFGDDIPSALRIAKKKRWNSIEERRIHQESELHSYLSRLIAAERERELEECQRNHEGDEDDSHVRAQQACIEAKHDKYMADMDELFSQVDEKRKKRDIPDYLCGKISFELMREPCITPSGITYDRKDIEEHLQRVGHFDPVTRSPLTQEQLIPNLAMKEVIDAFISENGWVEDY
Method: yeast two-hybrid
Matrix: yeast
Notes: mostly zero background
Baseline: not given
Direction: higher = stronger interaction
| target | lacZ reporter activity |
| --- | --- |
| UBE2H UBC core domain (UniProt P62256) | 0 |
| UBE2G2 UBC core domain (UniProt P60604) | 0 |
| UBE2V1 UBC core domain (UniProt Q13404) | 0 |
| UBE2N UBC core domain (UniProt P61088) | 0 |
| UBE2L6 UBC core domain (UniProt O14933) | 0 |
| UBE2U UBC core domain (UniProt Q5VVX9) | 3810 |
| UBE2V2 UBC core domain (UniProt Q15819) | 0 |
| UBE2E2 UBC core domain (UniProt Q96LR5) | 0 |
| CDC34 UBC core domain (UniProt P49427) | 0 |
| UBE2E1 UBC core domain (UniProt P51965) | 0 |
| UBE2Q2 UBC core domain (UniProt Q8WVN8) | 0 |

Repeated from above (sample 2):
| Substitution | relative binding score [%] |
| --- | --- |
| I105S | -5.81 |
| G71Y | -5.29 |
| E125F | 40.9 |
| E147W | -0.538 |
| E130K | 53.1 |
